Published values from different studies.
Protocols differ between the studies behind these lines.

`CCN(CCO)CCCC(C)Nc1ccnc2cc(Cl)ccc12` (stereo not shown): “patients with adverse event” 33% (measured: Bruising grade 1; newly diagnosed glioblastoma patients; oral, 800 mg/dose, with radiotherapy and temozolomide).
`N[C@@H]1c2ccccc2OC12CCN(c1cnc3c(N4CCCc5ncccc54)n[nH]c3n1)CC2` — result for “patients with fatal TEAE”: 0% (advanced solid tumour patients; oral, 150 mg once daily).
`Cc1cc(OCCOCCC(F)(F)P(=O)(O)O)ccc1CCc1cnc2c(N)nc3cc(CCC(=O)O)ccc3c2c1` — result for “patients with non-serious AE”: 9.5% (measured: vomiting; adults with advanced solid tumours; dose not given, by treatment group, all grades).
`O=C1Nc2cc3[nH]nc(-c4ccncc4)c3cc2CN1Cc1ccccc1`: “patients with headache” 0% (CTCAE v4.03; advanced solid tumour patients; intravenous, 0.9 mg/kg, schedules 1/2).
Under “patients with adverse event”, `CN1CC[C@@H](c2c(O)cc(O)c3c(=O)cc(-c4ccc(C(F)(F)F)cc4Cl)oc23)[C@@H]1CO` is recorded as 0% (measured: rectal abscess; B-cell malignancies; oral, 150 mg, grade 3 to 4, intermittent dosing).
For `CC(=O)c1c(C)c2cnc(Nc3ccc(C4CCN(CCS(C)(=O)=O)CC4)cn3)nc2n(C2CCCC2)c1=O`, “patients with neutropenia” read 73.3% (HR+/HER2- advanced breast cancer patients; oral, 100 mg bid, grade 3/4, monotherapy arm).
`C=CCNc1c(O)cc2c(O)c1C[C@@H](C)C[C@H](OC)[C@H](O)[C@@H](C)/C=C(\C)[C@H](OC(N)=O)[C@@H](OC)/C=C\C=C(/C)C(=O)N2` — result for “patients with sinus bradycardia”: 19% (unresectable or metastatic STS, GIST, other; intravenous, 400 mg/m^2).
For `CO[C@H]1C[C@@H]2CC[C@@H](C)[C@@](O)(O2)C(=O)C(=O)N2CCCC[C@H]2C(=O)O[C@H]([C@H](C)C[C@@H]2CC[C@@H](OC(=O)NCCOCCOCCOCCOCCOCCOCCOCCOCCC(=O)N3CCc4cc(Cn5nc(-c6ccc7oc(N)nc7c6)c6c(N)ncnc65)ccc4C3)[C@H](OC)C2)C[C@@H](O)[C@H](C)/C=C(\C)[C@@H](O)[C@@H](OC)C(=O)[C@H](C)C[C@H](C)/C=C/C=C/C=C/1C`, “patients with AE” read 1.8% (measured: gastric haemorrhage leading to dose reduction; patients with advanced solid tumours; intravenous, dose not given, any grade, all doses).
`C[C@@H]1OC(=O)NN=C1c1ccc(-c2ccc(F)cc2)c(C(F)(F)F)c1`: “patients with abdominal distension” 20% (patients, phase I trial; oral, dose not given, all arms, any grade TEAE).
For `Nc1nc2cc(-c3ccc4ncc(C(=O)N5CCOCC5)n4c3)ccc2o1`, “patients with adverse event” read 3% (measured: Vomiting; advanced solid tumour patients; dose not given).

Excerpt of the above:
`Cc1cc(OCCOCCC(F)(F)P(=O)(O)O)ccc1CCc1cnc2c(N)nc3cc(CCC(=O)O)ccc3c2c1` — result for “patients with non-serious AE”: 9.5% (measured: vomiting; adults with advanced solid tumours; dose not given, by treatment group, all grades).
